Results of several laboratories.
Each line is one published result; not all experiments were run side by side. ± gives the spread as reported.

CCN1/C(=C/C(C)=O)Sc2ccc(F)cc21
systolic blood pressure (cynomolgus monkey; oral, 30 mg/kg, 24 h post-dose): 110 ± 4 mmHg

COC(=O)c1ccccc1-c1c2ccc(=N)cc-2oc2c1ccc1cccc(O)c12.Cl
emission maximum (12.5 mM aqueous NaOH; pH 12.1, 10% DMSO): 770 nm

O=C(O)[C@H]1O[C@@H](Oc2ccc(/C=C/c3cc(O)cc(O)c3)cc2)[C@H](O)[C@@H](O)[C@@H]1O
CSF concentration (human, cerebrospinal fluid; dose not given, mean): not detected

CN1CCN(c2cccc3c2CCN(C(=O)/C=C/c2c(-n4cnnn4)ccc(Cl)c2F)[C@@H]3C(=O)Nc2ccc(C(=O)O)cc2)C(=O)C1
subjects with treatment-related adverse event (healthy human subjects; intravenous infusion, 1 mg/h, 5 days): 0%

COc1cccc(OC)c1CNC(=O)c1ccc2c(c1)C(=NNc1ccc(S(N)(=O)=O)cc1)C(=O)N2
logP (octanol/buffer, 40 mM buffer; pH 11): 2.39

N#Cc1ccc2c(c1)[C@H]1CCCN(C(=O)c3ccc4[nH]cnc4c3)[C@H]1C2
ACTH level change (human; 40 mg, day 15; baseline: baseline): 3.1 pmol/L

COc1ncc(-c2nc3c(n2C(C)C)[C@H](c2ccc(Cl)cc2)N(c2cc(Cl)cn(C)c2=O)C3=O)c(OC)n1
median Tmax (human patients, plasma; oral, 12.5 mg, high-dose arm, cycle 1 day 1): 3.2 h

CC(C)C[C@H](NC(=O)[C@H](CC(C)C)NC(=O)C(C)(C)NC(=O)[C@@H](NC(=O)[C@H](CCC1CCCCC1)NC(=O)[C@@H]1C[C@H](C)CN1C(=O)c1ccc(F)cc1)[C@H](O)C(C)C)C(=O)NC(C)(C)C(=O)NC(C)(C)C(=O)NCCC(=O)N[C@@H](C)CN(C)C
alpha-helix content (circular dichroism; phosphate buffer; pH 7.4, 20 °C): 94.2%

CC(C)(C(=O)N1CCOc2c(C#N)cncc2C1)C(F)F
subjects with adverse event (measured: Ecchymosis; human; oral, 15 mg twice daily, 14 days, multiple ascending dose): 0%

[O]=[Co].[O]=[Co][O][Co]=[O]
haematocrit (Crl:CD(SD) rat male, blood; oral, 73.4 mg Co/kg/day, 90 days): 49.5%

CCc1cc(C(=O)NC)c2nccc(N3CCc4c(cc(Cn5ccnc5)cc4-c4cn(C)nc4C(F)(F)F)C3=O)c2c1
serum HCT change (Sprague Dawley rats; oral, 100 mg/kg twice daily, 7 days; baseline: vehicle): -3.26%

Cc1cc(NC2CCN(C(=O)OC3CCN(C(=O)/C=C/CN(C)C)C3)CC2)n2ncc(C(C)C)c2n1 (stereo not drawn)
patients with adverse event (Phase I dose escalation CTCAE v4.0, measured: maculo-papular rash; patients with advanced solid tumours; dose not given, QD dosing any grade): 7%

COc1cc(Nc2ncc3c(n2)-c2ccc(Cl)cc2C(c2c(F)cccc2OC)=NC3)ccc1C(=O)O
patients with respiratory failure (cancer patients; oral, dose not given, all grades any attribution, with: pembrolizumab): 4%

CNCc1ccc(-c2[nH]c3cc(F)cc4c3c2CCNC4=O)cc1
incidence of decreased appetite (human patients; oral, dose not given, all grades, all doses): 28.6%

CCCC(=O)Nc1cc(C2CC2)[nH]n1
logP (octanol/buffer; pH 11): 1.68

CC(C)C[C@H](NC(=O)[C@@H](Cc1c[nH]c2ccccc12)NC(=O)[C@H](Cc1ccc(O)cc1)NC(=O)[C@H](CO)NC(=O)[C@H](Cc1c[nH]c2ccccc12)NC(=O)[C@H](Cc1c[nH]cn1)NC(=O)[C@@H]1CCC(=O)N1)C(=O)N[C@@H](CCCNC(=N)N)C(=O)N1CCC[C@H]1C(=O)NCC(N)=O
patients, drug-related skin TEAEs (Chinese CPP children, girls; intramuscular, 22.5 mg, 12 months, day 1, month 6): 0%

COc1ccc2c(=O)n(C)c(-c3ccccc3)nc2c1
tissue/plasma ratio (Sprague-Dawley rat, male, large intestine; oral, 30 mg/kg, 2 h; baseline: large intestine over plasma): 203

NS(=O)(=O)c1ccc(NN=C2C(=O)Nc3ccc4[nH]nnc4c32)cc1
logP (octanol/buffer, 40 mM buffer; pH 11): -0.62

CN(C(=O)n1cnc(-c2ccc[n+]([O-])c2)c1)[C@H]1CC[C@H](O)CC1
concentration (Wistar rat, medulla oblongata; oral, 10 mg/kg of BIA 10-2474, 24 h, single dose): 13.3 ± 0.3 ng/g

NC1(C(=O)N[C@@H](CCO)c2ccc(Cl)cc2)CCN(c2nc[nH]c3nccc2-3)CC1
incidence of Vomiting (metastatic CRPC patients; 480 mg b.i.d., any grade, treatment-related, with: enzalutamide 160 mg daily): 20%

CN(C)C(=O)c1cc2cnc(Nc3ccc(-c4ccc5c(=O)cc(N6CCOCC6)oc5c4)cc3)nc2n1C1CCCC1
concentration (BALB/c mouse, liver; oral, 20 mg/kg, 2 h): 3550 ± 2710 ng/g

Excerpt of the above:
COC(=O)c1ccccc1-c1c2ccc(=N)cc-2oc2c1ccc1cccc(O)c12.Cl
emission maximum (12.5 mM aqueous NaOH; pH 12.1, 10% DMSO): 770 nm

CN(C(=O)n1cnc(-c2ccc[n+]([O-])c2)c1)[C@H]1CC[C@H](O)CC1
concentration (Wistar rat, medulla oblongata; oral, 10 mg/kg of BIA 10-2474, 24 h, single dose): 13.3 ± 0.3 ng/g

CCN1/C(=C/C(C)=O)Sc2ccc(F)cc21
systolic blood pressure (cynomolgus monkey; oral, 30 mg/kg, 24 h post-dose): 110 ± 4 mmHg
